Experimental data pooled from the literature.
Lines come from different studies, so protocols differ. “And” joins repeats or separate records; there may be more than shown. ± marks the error that the study gave.
UniProt P04062, sequence (whole entry, unmodified, looked up): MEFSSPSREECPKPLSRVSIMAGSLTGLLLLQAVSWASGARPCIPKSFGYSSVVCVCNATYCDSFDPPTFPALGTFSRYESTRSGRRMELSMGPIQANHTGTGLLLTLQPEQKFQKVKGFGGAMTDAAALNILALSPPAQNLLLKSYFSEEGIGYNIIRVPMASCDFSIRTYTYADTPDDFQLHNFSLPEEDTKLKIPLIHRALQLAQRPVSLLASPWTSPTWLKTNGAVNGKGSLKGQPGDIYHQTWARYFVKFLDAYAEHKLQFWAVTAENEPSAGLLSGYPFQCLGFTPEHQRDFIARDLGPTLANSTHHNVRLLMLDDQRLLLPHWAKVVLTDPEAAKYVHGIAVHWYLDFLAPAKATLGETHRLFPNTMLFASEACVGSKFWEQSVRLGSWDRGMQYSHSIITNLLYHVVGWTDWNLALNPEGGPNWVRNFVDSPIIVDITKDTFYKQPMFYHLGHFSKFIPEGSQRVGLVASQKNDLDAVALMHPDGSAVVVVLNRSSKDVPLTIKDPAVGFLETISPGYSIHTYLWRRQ

Molecule | tested on | assay | system | setting | scale | endpoint | result
CCCC[C@@H]1NC(=O)[C@@H](CC(C)C)NC(=O)[C@H](CCCCNC(=O)CN2CCN(CC(=O)O)CCN(CC(=O)O)CC2)NC(=O)NNC(=O)[C@H](Cc2c[nH]cn2)NC(=O)[C@@H](Cc2c[nH]c3ccccc23)NC1=O [copper-64 labelled] |  |  | Balb/c mice, kidneys | intravenous, dose not given |  | tissue uptake | 1.56 ± 0.34 %ID/g
CC(C)C[C@H](NC(=O)[C@H](Cc1ccc(O)cc1)NC(=O)[C@@H](CCCNC(=N)N)NC(=O)[C@@H](CO)NC(=O)[C@H](Cc1ccccc1)NC(=O)[C@H](CC1CCCCC1)NC(=O)[C@H](CC(=O)O)NC(=O)CN1CCN(CC(=O)O)CCN(CC(=O)O)CCN(CC(=O)O)CC1)C(=O)N[C@@H](Cc1c[nH]c2ccccc12)C(=O)N[C@@H](CO)C(=O)O [copper-64 labelled] |  |  | human, red marrow | concentration not given, 3 h |  | activity concentration | 1440 Bq/mL and 738 Bq/mL and 960 Bq/mL and 878 Bq/mL and 1610 Bq/mL and 1110 Bq/mL
CCCC[C@@H]1NC(=O)[C@@H](CC(C)C)NC(=O)[C@H](CCCCNC(=O)CN2CCN(CC(=O)O)CCN(CC(=O)O)CC2)NC(=O)[C@@H](CO)NC(=O)[C@H](Cc2c[nH]cn2)NC(=O)[C@@H](Cc2c[nH]c3ccccc23)NC1=O [copper-64 labelled] |  |  | Balb/c mice, muscle | intravenous, dose not given |  | tissue uptake | 0.09 ± 0.01 %ID/g
O=C(C1=C[C@H](C2CCCCC2)C[C@H](OCCCCO)O1)N1CCN(Cc2ccc3c(c2)OCO3)CC1 | Trypanosoma cruzi | reporter mRNA translation, inhibitor, item: Renilla luciferase mRNA | cell-free extract | concentration not given | reference: positive over negative control | translation activity | 138% and 93.5%
nucleophosmin S112E |  | far-UV CD, CDSSTR | Tris buffer, NaCl | pH 7.5, room temperature |  | unstructured content | 67%
Cc1cc(-c2ccc(NC(=O)CC[C@H](NC(=O)CN3CCN(CC(=O)O)CCN(CC(=O)O)CCN(CC(=O)O)CC3)C(=O)NCC(=O)N[C@@H](CC(N)=O)C(=O)N[C@H](C(=O)N[C@H](C(=O)N[C@@H](CCCNC(=N)N)C(=O)N[C@@H](CCC(N)=O)C(=O)O)C(C)C)C(C)C)c(C)c2)ccc1/N=N/c1ccc2c(S(=O)(=O)O)cc(S(=O)(=O)O)c(N)c2c1O [copper-64 labelled] |  |  | nude mice, muscle | intravenous, 1 h |  | tissue uptake | 2.61 ± 0.44 %ID/g
N=C(N)NCCC[C@@H]1NC(=O)[C@H](CCCCNC(=S)Nc2ccc(CC3CN(CC(=O)O)CCN(CC(=O)O)CCN(CC(=O)O)CCN3CC(=O)O)cc2)NC(=O)[C@@H](Cc2ccc(O)cc2)NC(=O)[C@H](CC(=O)O)NC(=O)CNC1=O (some centres unmarked) [actinium-225 labelled] |  |  | mice with U-87 MG tumour, kidney |  |  | effective half-life | 19.9 h
N=C(N)NCCC[C@@H]1NC(=O)[C@H](CCCCNC(=O)CN2CCN(CC(=O)O)CCN(CC(=O)O)CCN(CC(=O)O)CC2)NC(=O)[C@@H](Cc2ccccc2)NC(=O)[C@H](CC(=O)O)NC(=O)CNC1=O [indium-111 labelled] |  |  | female BALB/c nude mice, U-87 MG xenograft, blood | intravenous, dose not given, 4 h |  | blood radioactivity | < 0.05 %ID/g
CCCCCNC(=O)C1C(O)C(O)C(O)C(CO)N1CCCC (centres unmarked) | GBA1 (Homo sapiens, UniProt P04062, R534H) | inhibitor, 4MU-β-D-glucopyranoside |  | together with: 4MU-β-D-glucopyranoside |  | IC50 | 25 µM
CCCC[C@H](NC(=O)CCCCCCCNC(=O)CN1CCN(CC(=O)O)CCN(CC(=O)O)CC1)C(=O)N[C@H]1CC(=O)NCCCC[C@@H](C(N)=O)NC(=O)[C@H](Cc2c[nH]c3ccccc23)NC(=O)[C@H](CCCNC(=N)N)NC(=O)[C@@H](Cc2ccccc2)NC(=O)[C@H](Cc2c[nH]cn2)NC1=O [technetium-99m labelled] |  |  | C57 mouse, muscle | intravenous, 0.037 MBq, 4 h |  | tissue uptake | 0.02 ± 0.03 %ID/g
CC(C)Oc1cccc(C(=O)C2CCCN(Cc3cnn(C(C)C)c3)C2)c1 (centres unmarked) | Trypanosoma cruzi | reporter mRNA translation, inhibitor, item: capped polyadenylated Renilla luciferase mRNA | cell-free extract | concentration not given | reference: control RNA | relative translation | 104%
Cc1ccnc(-c2cc(C(=O)NCCCCCC(=O)N[C@@H](CCCNC(=N)N)C(=O)N[C@@H](CCCNC(=N)N)C(=O)N[C@@H](Cc3c[nH]c4ccccc34)C(=O)N[C@@H](Cc3c[nH]c4ccccc34)C(=O)N[C@@H](CCCNC(=N)N)C(=O)N[C@@H](Cc3c[nH]c4ccccc34)C(=O)N[C@@H](Cc3c[nH]c4ccccc34)C(=O)N[C@@H](CCCNC(=N)N)C(=O)N[C@@H](CCCNC(=N)N)C(N)=O)ccn2)c1 (stereo in doubt) |  | RNO/histidine method | acetonitrile | together with: irradiation 365 nm | reference: phenalenone | singlet oxygen yield | 59%
human nucleophosmin |  | far-UV CD, CDSSTR | Tris buffer, NaCl | pH 7.5, room temperature |  | unstructured content | 47%
C=C1CC[C@H](OCCCNC(=O)CCOCCOCCOCCOCCOCCOCCOCCOCCOCCOCCOCCOCCOCCOCCOCCOCCOCCOCCOCCOCCOCCOCCOCCOCCOCCOCCOCCOCCOCCOCCOCCOCCOCCOCCOCCOCCNC(=O)CCN2C(=O)CC(SC[C@H](NC(=O)[C@H](Cc3ccccc3)NC(=O)[C@H](CC(N)=O)NC(=O)[C@H](Cc3c[nH]cn3)NC(=O)[C@@H](NC(=O)[C@H](CC(=O)O)NC(=O)[C@H](CCC(N)=O)NC(=O)[C@H](CC(C)C)NC(=O)[C@H](CCCCN)NC(=O)[C@H](CCCCN)NC(=O)[C@H](CCCNC(=N)N)NC(=O)[C@H](CC(C)C)NC(=O)[C@H](Cc3c[nH]c4ccccc34)NC(=O)[C@H](CCC(=O)O)NC(=O)[C@@H](NC(=O)[C@H](CCCNC(=N)N)NC(=O)[C@H](CCC(=O)O)NC(=O)[C@H](CCSC)NC(=O)[C@H](CO)NC(=O)[C@H](CC(N)=O)NC(=O)[C@H](CC(C)C)NC(=O)[C@H](Cc3c[nH]cn3)NC(=O)[C@H](CCCCN)NC(=O)CNC(=O)[C@H](CC(C)C)NC(=O)[C@H](CC(N)=O)NC(=O)[C@H](Cc3c[nH]cn3)NC(=O)[C@H](CCSC)NC(=O)[C@H](CC(C)C)NC(=O)[C@H](CCC(N)=O)NC(=O)[C@@H](NC(=O)[C@H](CCC(=O)O)NC(=O)[C@H](CO)NC(=O)[C@@H](NC(=O)[C@@H](N)CO)C(C)C)[C@@H](C)CC)C(C)C)C(C)C)C(=O)O)C2=O)C/C1=C/C=C1\CCC[C@]2(C)[C@@H]([C@H](C)CCCC(C)(C)O)CC[C@@H]12 (some centres unmarked) |  |  | male cynomolgus monkey, plasma | subcutaneous, 0.02 mg/kg, single dose |  | MRT | 23.3 h

Excerpt of the above:
Molecule | tested on | assay | system | setting | scale | endpoint | result
human nucleophosmin |  | far-UV CD, CDSSTR | Tris buffer, NaCl | pH 7.5, room temperature |  | unstructured content | 47%
Cc1cc(-c2ccc(NC(=O)CC[C@H](NC(=O)CN3CCN(CC(=O)O)CCN(CC(=O)O)CCN(CC(=O)O)CC3)C(=O)NCC(=O)N[C@@H](CC(N)=O)C(=O)N[C@H](C(=O)N[C@H](C(=O)N[C@@H](CCCNC(=N)N)C(=O)N[C@@H](CCC(N)=O)C(=O)O)C(C)C)C(C)C)c(C)c2)ccc1/N=N/c1ccc2c(S(=O)(=O)O)cc(S(=O)(=O)O)c(N)c2c1O [copper-64 labelled] |  |  | nude mice, muscle | intravenous, 1 h |  | tissue uptake | 2.61 ± 0.44 %ID/g
